Measured values from different studies.
Lines come from different studies, so protocols differ. “And” joins repeats or separate records; there may be more than shown. ± marks the error that the study gave.
Protein AF-9 with DOT1L: Protein AF-9, with DOT1L (Homo sapiens, UniProt P42568)
Chain of UniProt P42568 (whole entry, looked up): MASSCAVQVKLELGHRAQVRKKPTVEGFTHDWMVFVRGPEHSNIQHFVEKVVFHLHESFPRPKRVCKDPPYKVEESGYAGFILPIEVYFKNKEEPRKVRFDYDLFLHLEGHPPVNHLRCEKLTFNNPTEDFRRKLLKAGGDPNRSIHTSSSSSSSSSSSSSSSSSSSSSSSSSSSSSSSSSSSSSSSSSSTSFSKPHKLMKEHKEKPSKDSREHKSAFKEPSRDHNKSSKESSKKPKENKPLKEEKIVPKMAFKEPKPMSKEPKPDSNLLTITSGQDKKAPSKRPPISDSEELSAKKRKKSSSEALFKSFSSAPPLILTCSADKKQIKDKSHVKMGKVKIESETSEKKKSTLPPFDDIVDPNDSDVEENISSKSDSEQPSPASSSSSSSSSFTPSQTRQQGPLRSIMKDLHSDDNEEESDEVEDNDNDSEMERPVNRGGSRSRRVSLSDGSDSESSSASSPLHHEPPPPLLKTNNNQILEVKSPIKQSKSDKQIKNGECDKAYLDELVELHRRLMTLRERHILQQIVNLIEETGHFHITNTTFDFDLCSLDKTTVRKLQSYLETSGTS
BRD9: Bromodomain-containing protein 9 (BRD9, Homo sapiens, UniProt Q9H8M2)
Chain of UniProt Q9H8M2 (whole entry, looked up): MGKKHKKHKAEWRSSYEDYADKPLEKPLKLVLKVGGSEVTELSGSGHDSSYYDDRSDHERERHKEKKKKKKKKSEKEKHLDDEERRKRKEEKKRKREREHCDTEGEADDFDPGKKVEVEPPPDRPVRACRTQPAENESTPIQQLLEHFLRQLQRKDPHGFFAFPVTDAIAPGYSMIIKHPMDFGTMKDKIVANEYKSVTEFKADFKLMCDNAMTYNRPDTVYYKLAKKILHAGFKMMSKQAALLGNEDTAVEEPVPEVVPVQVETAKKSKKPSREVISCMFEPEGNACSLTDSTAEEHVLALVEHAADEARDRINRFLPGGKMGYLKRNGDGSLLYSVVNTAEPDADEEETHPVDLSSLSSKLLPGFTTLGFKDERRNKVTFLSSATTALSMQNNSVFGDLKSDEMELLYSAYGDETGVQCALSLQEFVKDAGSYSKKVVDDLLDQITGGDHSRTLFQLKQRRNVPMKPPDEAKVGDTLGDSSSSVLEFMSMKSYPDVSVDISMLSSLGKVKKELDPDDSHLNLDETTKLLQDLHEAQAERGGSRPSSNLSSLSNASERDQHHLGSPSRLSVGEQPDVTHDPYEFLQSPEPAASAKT
CD274: Programmed cell death 1 ligand 1 (CD274, Homo sapiens, UniProt Q9NZQ7)
Chain of UniProt Q9NZQ7 (whole entry, looked up): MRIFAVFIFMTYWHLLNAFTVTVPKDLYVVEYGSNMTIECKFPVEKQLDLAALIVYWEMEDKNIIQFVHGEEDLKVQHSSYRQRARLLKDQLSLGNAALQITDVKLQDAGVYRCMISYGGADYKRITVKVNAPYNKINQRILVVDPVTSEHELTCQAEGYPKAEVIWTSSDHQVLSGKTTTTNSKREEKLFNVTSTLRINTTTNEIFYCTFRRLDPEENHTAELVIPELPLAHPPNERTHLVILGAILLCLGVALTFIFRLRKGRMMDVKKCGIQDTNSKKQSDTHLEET
Chain of UniProt P48730 (whole entry, looked up): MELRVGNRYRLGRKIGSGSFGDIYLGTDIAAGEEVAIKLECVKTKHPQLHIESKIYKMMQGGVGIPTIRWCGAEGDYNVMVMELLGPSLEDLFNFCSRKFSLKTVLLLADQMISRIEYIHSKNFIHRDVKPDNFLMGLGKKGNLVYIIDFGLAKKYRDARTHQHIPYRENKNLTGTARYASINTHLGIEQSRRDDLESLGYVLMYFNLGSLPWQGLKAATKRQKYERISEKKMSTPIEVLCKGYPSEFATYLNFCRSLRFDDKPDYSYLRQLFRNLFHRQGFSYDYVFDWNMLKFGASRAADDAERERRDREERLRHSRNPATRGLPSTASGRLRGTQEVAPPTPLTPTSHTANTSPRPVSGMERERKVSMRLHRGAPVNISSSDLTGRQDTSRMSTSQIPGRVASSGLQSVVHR
Chain of UniProt Q8N884 (whole entry, looked up): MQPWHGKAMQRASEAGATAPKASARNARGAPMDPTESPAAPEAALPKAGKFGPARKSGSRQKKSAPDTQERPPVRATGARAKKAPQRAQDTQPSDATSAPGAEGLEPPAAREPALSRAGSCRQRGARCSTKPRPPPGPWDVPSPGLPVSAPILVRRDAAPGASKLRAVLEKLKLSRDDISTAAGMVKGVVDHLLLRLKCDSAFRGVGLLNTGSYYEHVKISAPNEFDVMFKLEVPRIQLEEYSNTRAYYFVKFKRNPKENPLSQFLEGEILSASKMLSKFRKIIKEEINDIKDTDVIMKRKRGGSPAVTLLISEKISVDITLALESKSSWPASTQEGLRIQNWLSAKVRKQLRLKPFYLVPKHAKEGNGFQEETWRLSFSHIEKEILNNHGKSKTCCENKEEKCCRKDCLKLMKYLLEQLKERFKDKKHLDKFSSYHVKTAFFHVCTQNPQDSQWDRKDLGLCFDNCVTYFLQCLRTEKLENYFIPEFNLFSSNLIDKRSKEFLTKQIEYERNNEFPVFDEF
Chain of UniProt Q13233 (whole entry, looked up): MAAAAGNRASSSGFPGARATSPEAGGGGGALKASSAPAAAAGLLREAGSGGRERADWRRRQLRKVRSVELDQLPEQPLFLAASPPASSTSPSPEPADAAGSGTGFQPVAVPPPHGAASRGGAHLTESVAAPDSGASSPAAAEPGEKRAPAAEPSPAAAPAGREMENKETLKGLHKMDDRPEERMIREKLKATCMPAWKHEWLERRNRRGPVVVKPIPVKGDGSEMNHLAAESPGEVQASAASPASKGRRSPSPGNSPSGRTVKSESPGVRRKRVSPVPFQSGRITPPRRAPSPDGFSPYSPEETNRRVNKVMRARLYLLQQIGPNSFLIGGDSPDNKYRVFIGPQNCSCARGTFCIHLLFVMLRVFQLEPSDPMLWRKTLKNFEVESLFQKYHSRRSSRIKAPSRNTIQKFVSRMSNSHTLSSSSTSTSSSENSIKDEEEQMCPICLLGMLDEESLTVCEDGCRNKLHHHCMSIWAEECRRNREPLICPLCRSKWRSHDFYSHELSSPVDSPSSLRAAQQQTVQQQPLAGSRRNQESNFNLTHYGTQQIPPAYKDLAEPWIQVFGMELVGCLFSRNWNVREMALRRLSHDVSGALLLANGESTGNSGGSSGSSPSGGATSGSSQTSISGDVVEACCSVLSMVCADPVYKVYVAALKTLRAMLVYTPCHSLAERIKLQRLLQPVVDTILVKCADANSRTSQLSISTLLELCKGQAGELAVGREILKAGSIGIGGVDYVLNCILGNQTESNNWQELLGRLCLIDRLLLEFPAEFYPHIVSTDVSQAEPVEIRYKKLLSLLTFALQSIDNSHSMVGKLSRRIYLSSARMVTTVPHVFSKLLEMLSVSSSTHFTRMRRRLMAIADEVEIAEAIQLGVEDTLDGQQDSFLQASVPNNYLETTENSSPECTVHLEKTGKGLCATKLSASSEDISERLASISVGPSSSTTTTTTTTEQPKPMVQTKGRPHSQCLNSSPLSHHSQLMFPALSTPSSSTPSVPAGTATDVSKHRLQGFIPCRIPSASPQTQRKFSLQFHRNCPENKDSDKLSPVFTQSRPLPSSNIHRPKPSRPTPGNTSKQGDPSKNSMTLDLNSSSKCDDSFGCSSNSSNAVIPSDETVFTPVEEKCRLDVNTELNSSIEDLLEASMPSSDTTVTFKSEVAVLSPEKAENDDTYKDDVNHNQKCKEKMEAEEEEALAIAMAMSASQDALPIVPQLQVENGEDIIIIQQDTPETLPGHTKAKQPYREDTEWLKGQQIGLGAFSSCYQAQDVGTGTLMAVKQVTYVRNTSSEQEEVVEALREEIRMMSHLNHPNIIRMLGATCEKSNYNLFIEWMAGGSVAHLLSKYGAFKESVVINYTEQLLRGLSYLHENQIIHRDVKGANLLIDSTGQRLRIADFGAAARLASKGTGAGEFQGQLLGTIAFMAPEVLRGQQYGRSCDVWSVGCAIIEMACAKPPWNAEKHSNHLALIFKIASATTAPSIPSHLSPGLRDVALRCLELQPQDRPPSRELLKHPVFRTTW
Chain of UniProt P30530 (whole entry, looked up): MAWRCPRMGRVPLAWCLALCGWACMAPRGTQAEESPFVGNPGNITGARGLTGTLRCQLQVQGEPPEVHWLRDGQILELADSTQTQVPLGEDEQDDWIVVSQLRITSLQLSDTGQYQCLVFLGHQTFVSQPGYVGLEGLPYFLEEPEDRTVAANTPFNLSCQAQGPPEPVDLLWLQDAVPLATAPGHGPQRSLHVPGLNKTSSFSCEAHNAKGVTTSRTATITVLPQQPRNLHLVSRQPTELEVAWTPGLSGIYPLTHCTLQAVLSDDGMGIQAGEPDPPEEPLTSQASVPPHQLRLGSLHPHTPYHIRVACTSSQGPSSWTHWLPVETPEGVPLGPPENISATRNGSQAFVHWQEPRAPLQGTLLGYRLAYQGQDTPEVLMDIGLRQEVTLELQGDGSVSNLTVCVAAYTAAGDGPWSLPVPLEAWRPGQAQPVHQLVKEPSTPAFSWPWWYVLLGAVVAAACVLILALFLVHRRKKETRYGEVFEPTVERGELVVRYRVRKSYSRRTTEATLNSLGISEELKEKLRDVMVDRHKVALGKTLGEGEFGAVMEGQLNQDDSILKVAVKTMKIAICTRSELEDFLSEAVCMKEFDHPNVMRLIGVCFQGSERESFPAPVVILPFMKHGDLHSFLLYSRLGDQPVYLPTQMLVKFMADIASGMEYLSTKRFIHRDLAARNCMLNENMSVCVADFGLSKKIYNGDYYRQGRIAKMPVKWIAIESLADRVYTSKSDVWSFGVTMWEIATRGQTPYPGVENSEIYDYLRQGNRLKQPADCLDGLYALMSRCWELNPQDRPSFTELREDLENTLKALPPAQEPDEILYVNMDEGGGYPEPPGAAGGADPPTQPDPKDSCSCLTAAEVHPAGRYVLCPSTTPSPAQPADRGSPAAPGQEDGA

| Compound | target | assay | test system | conditions | inhibition |
| --- | --- | --- | --- | --- | --- |
| Cc1ccc(-c2ccc3ncc(OCC4CCNCC4)nc3c2)cc1C | Protein AF-9 with DOT1L | DOT1L binding, AlphaLISA |  | 10 µM | 9 to 18% |
| COC(=O)c1c(OC)cc(-c2cc(C(C)=O)n3ccccc23)cc1OC | BRD9 | AlphaScreen |  | 1 µM | 95.1% |
| O=C(Nc1cccc2c(=O)cc(-c3nnn[nH]3)oc12)c1ccc(OCCCCc2ccccc2)cc1 | Volume-regulated anion channel subunit LRRC8C, part LRRC8A IL1 chimera (LRRC8C, Homo sapiens, UniProt Q8TDW0, Y126F) | ion current, inhibitor, whole-cell patch clamp | HCT LRRC8-/- cells | 1 µM, +100 mV | 75.2% and 80.6% and 81.3% and 82% |
| Cn1cc(-c2cnc3ccc(NC(=O)Nc4ccc(F)c(Br)c4)cc3n2)cn1 | Mitogen-activated protein kinase kinase kinase 1 (MAP3K1, Homo sapiens, UniProt Q13233) | kinase binding, KiNativ profiling, item: Lys2 peptide | PANC-1 lysate | 1.25 µM | 30% |
| CC[C@H](NCc1ccc(-c2cccc(-c3cccc(/C=C/C(=O)c4ccc(OC)cc4)c3)c2C)nc1OC)C(N)=O | CD274 | binding, inhibitor, HTRF |  | 1 µM | 10.4 ± 3.2% |
| CCCCCCCCCCCCNC(=S)NCCCC[C@H](NC(=O)OCc1ccccc1)C(=O)N[C@@H](Cc1c[nH]c2ccccc12)C(=O)N[C@@H](CC(N)=O)C(N)=O | NAD-dependent protein deacetylase sirtuin-3, mitochondrial (SIRT3, Homo sapiens, UniProt Q9NTG7) | enzyme activity, inhibitor |  | 10 µM | < 5% |
| Cc1nn(-c2nc3c(F)cc(F)cc3s2)c(O)c1C(c1ccc(C(F)(F)F)cc1)c1c(C)nn(-c2nc3c(F)cc(F)cc3s2)c1O | Cyclic GMP-AMP synthase, catalytic domain; with DNA (CGAS, Homo sapiens, UniProt Q8N884) | cGAS phase separation, inhibitor |  | 100 µM | 101% |
| [2H]c1cc(C)c(NC(=O)c2cnc(Nc3cc(N4CCCCC4)nc(C)n3)s2)c(Cl)c1 | Proto-oncogene tyrosine-protein kinase receptor Ret (RET, Homo sapiens, UniProt P07949, Y791F) |  |  | 0.01 µM | < 30% |
| c1ccc(-c2ccc(Nc3ccc4ncc(OCC5CCNCC5)nc4c3)cc2)cc1 | Protein AF-9 with DOT1L | DOT1L binding, AlphaLISA |  | 10 µM | 65% |
| COc1cc2nccc(Oc3ccc(NC(=O)c4cc5c(n(-c6ccccc6)c4=O)CCCC5=O)nc3)c2cc1OC | Tyrosine-protein kinase receptor UFO (AXL, Homo sapiens, UniProt P30530) | plasma inhibitory activity | human patients | 10 mg/day | 84 to 100% |
| CC[C@@H]1[C@H](F)C(=O)N[C@@H]1COc1nccc2cc(C(N)=O)c(OC)cc12 | Phosphorylase b kinase gamma catalytic chain, liver/testis isoform (PHKG2, Homo sapiens, UniProt P15735) | ATP-site probe binding, ActivX profiling | THP-1 cell lysate | 0.2 mM, Lys1 site | 0.151% |
| CC(C)c1noc2ncc(C(=O)c3ccccc3O)cc12 | Voltage-dependent L-type calcium channel subunit alpha-1C (Cacna1c, Mus musculus, UniProt Q01815) | ion current, whole-cell patch-clamp |  | 10 µM | 15.6% |
| CCCC[C@H]1C(=O)N(C)[C@@H](CCCC)C(=O)N[C@@H](CCCNC(=N)N)C(=O)N[C@H](C(=O)NCC(N)=O)CSCC(=O)N[C@@H](Cc2ccccc2)C(=O)N(C)[C@@H](C)C(=O)N[C@@H](CC(N)=O)C(=O)N2CCC[C@H]2C(=O)N[C@@H](Cc2c[nH]cn2)C(=O)N[C@@H](CC(C)C)C(=O)N[C@@H](CO)C(=O)N[C@@H](Cc2c[nH]c3ccccc23)C(=O)N[C@@H](CO)C(=O)N[C@@H](Cc2c[nH]c3ccccc23)C(=O)N1C | Programmed cell death 1 ligand 1, with PD-1 (CD274, Homo sapiens, UniProt Q9NZQ7) | PD-1/PD-L1 binding, ELISA |  | 10 µM | 97.6 ± 0.6% |
| COc1ccc(OC)c(-c2cc(C(C)=O)n3ccccc23)c1 | BRD9 | AlphaScreen |  | 1 µM | > 90% |
| Cc1cccc(-c2nc[nH]c2-c2ccncc2)c1 | Casein kinase I isoform delta (CSNK1D, Homo sapiens, UniProt P48730) | kinase activity |  | 1 µM | 4% |
| COc1ccc(C(=O)/C=C/c2cccc(-c3cccc(-c4ccc(CNCc5c(C)cc(C)[nH]c5=O)c(OC)n4)c3C)c2)cc1 | CD274 | binding, inhibitor, HTRF |  | 1 µM | 12.4 ± 2.4% |
| COc1cc(-c2cc(C(C)=O)n3ccccc23)c(OC)cc1CN(C)C | BRD9 | AlphaScreen |  | 1 µM | 95.2% |
